Measured values from different studies.
“And” joins repeats or separate records; there may be more than shown. ± gives the spread as reported.

CN1CCCNC(=O)c2cccc(c2)C(=O)NCCCN(C)CCCNc2cccc3c2C(=O)c2cccc(c2C3=O)NCCC1 — tumour volume (KSN/Slc nude mice, SAS xenograft; dose not given, day 8, 192 h): 289 mm3 and 240 mm3 and 377 mm3 and 246 mm3 and 188 mm3
CC(C)c1ccc(N(C)c2ccc3c(c2)OCC[C@H]3CNc2cnccc2C(=O)O)cc1 — tumour growth inhibition (mouse gastric cancer PDX sample A; 22.5 mg/kg, day 38): 41%
COC1CN([C@H]2CC[C@H]([C@@]3(C)Oc4c(Cl)cc(C(=O)NCc5c(SC)cc(C)[nH]c5=O)c(C)c4O3)CC2)C1 — log2 fold change (RNA-seq, measured: CRIM1; human, whole blood; dose not given, 24 h; relative to: pretreatment baseline): 1.27
CC(=O)[O-].O.O.O.O.[Ni+2].[O-]c1ccc(Br)cc1C=NCCN1CCOCC1 — inhibition (nitric oxide scavenging; 40 µM): 15.3%
CN1CCC[C@]1(C)/C=C/S(=O)(=O)NC(=O)Nc1c2c(cc3c1CCC3)CCC2 — IL-18 inhibition (human, whole blood ex vivo; 50 mg twice daily, day 1, 12 h, multiple ascending dose, together with: LPS and ATP): 84.2%
COc1ccc(C(=O)CCc2cc(C(CCc3ccc(O)cc3OC)c3ccc(O)cc3)c(O)cc2OC)cc1 (racemic) — PGD2 level (human blood; 10 µM, together with: A23187): 4 ± 4 pg/mL
CCCCCCCCN(CCC(=O)Nc1ccccc1)C(=O)c1ccccn1 — loss of vascular smooth muscle cells (immunofluorescence; Lmna G609G/G609G progeroid mice, aortic arch; dose not given; relative to: vehicle): 25%
COc1cc(O)ccc1CCC(c1ccc(O)cc1)c1cc2c(c(C)c1O)OC(c1ccc(O)cc1)CC2 (mixture of isomers) — 4-HDHA level (human blood; 30 µM, together with: A23187): 93 ± 48 pg/mL
COC(=O)C1CN1S(=O)(=O)c1ccc2cc(C)ccc2c1 (stereo not drawn) — tumour volume (mouse, Lewis lung carcinoma; ip, 100 mg/kg, 336 h): 751 mm3

Excerpt of the above:
CCCCCCCCN(CCC(=O)Nc1ccccc1)C(=O)c1ccccn1 — loss of vascular smooth muscle cells (immunofluorescence; Lmna G609G/G609G progeroid mice, aortic arch; dose not given; relative to: vehicle): 25%
